Assay results pooled from the literature.
Every numbered part comes from another study and shows a few of its results, in no order. “And” joins repeats or separate records; there may be more than shown.
Sequence of UniProt P54756 (whole entry, looked up): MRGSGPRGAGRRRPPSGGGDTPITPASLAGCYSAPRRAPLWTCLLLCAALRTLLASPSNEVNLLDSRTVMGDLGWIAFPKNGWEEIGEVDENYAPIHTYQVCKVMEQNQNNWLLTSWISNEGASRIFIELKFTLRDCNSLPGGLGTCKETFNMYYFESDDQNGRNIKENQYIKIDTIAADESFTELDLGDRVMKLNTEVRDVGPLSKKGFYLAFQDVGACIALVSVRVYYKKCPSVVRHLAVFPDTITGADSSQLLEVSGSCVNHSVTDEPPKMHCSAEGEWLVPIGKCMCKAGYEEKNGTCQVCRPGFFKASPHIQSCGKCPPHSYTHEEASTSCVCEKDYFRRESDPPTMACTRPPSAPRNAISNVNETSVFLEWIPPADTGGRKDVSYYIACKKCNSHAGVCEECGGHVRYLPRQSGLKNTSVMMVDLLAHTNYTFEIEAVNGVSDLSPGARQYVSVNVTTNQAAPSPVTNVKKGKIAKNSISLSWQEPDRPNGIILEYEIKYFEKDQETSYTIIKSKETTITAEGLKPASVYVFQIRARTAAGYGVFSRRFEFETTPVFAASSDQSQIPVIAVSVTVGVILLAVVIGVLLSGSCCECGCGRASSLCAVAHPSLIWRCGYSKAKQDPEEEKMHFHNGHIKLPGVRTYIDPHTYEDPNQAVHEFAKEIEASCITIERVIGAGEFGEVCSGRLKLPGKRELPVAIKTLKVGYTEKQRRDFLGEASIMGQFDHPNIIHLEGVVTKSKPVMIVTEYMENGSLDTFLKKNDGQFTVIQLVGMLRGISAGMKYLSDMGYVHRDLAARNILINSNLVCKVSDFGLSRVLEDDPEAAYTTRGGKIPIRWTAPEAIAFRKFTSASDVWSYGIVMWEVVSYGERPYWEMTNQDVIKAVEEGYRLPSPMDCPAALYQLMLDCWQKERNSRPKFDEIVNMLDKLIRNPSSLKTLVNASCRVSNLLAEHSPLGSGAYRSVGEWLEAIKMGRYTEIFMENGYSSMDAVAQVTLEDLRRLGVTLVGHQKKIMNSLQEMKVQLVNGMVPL

Series 1
SMILES: C[C@@H]1CN(c2ccc(-c3cc(C(=O)NCCOCCOCCOCCOCCNC(=O)/C=C/c4[nH]cc(C(=O)N[C@@H](CC(N)=O)c5ccc(F)c(Cl)c5)c4-c4ccc(Cl)cc4F)ccc3F)cc2NC(=O)c2c[nH]c(=O)cc2C(F)(F)F)C[C@H](C)N1C
Read-out: thermal unfolding
Method: differential scanning fluorimetry
Concentration: 5.5 µM
Direction: higher = more unfolded
DCAF1: DDB1- and CUL4-associated factor 1 (DCAF1, Homo sapiens, UniProt Q9Y4B6)
Sequence of UniProt Q9Y4B6 (whole entry, looked up): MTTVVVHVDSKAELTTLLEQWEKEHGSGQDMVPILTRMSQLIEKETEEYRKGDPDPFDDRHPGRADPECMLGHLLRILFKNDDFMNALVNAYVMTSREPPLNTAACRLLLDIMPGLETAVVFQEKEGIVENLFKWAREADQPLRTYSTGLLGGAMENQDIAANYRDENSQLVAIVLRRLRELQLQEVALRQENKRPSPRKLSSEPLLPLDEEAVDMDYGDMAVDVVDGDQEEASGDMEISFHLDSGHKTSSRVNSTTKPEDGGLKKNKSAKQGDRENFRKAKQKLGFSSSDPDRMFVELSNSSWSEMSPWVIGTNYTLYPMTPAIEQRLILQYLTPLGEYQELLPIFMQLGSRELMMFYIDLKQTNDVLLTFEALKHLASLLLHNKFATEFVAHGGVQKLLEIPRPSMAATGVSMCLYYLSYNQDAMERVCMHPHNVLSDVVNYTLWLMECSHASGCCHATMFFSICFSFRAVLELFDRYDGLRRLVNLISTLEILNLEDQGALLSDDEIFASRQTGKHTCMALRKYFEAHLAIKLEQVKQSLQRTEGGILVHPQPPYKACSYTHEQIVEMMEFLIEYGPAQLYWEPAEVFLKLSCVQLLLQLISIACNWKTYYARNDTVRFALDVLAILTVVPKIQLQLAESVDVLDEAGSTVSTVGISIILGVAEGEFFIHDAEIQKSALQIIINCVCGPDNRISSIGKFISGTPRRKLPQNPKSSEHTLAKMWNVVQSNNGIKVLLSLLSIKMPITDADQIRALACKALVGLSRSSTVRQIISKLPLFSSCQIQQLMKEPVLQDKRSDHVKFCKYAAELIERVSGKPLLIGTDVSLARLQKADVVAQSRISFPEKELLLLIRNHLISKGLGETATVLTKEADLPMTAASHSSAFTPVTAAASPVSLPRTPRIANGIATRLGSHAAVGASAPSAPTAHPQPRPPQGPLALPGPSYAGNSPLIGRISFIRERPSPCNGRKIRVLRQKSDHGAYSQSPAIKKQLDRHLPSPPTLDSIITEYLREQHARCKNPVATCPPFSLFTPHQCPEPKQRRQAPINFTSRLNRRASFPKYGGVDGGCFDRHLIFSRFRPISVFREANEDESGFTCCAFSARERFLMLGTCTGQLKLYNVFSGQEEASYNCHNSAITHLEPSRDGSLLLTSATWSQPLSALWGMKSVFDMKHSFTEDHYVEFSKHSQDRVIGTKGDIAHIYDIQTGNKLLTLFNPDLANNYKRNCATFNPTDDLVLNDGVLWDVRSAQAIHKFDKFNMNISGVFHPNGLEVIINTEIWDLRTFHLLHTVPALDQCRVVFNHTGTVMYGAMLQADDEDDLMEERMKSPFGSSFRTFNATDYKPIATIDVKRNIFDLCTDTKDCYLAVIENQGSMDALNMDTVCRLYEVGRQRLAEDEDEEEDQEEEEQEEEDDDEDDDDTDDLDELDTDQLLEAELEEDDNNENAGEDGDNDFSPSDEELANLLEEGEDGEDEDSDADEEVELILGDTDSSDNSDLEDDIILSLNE
WDR5: WD repeat-containing protein 5 (WDR5, Homo sapiens, UniProt P61964)
| target | conditions | SYPRO Orange fluorescence |
| --- | --- | --- |
| DCAF1 | 49.8 °C | 15100 a.u. |
| WDR5 | 70.61 °C | 17000 a.u. |
| DCAF1 | 87.21 °C | 37700 a.u. |
| DCAF1 | 71.61 °C | 53800 a.u. |
| WDR5 | 32 °C | 12700 a.u. |
| DCAF1 | 67.81 °C | 58300 a.u. |
| DCAF1 | 33.2 °C | 9810 a.u. |
| DCAF1 | 75.41 °C | 49500 a.u. |
| DCAF1 | 87.61 °C | 37300 a.u. |
| WDR5 | 65.81 °C | 14100 a.u. |
| WDR5 | 94.41 °C | 45900 a.u. |

Series 2
Compound: CCC1(c2cccc(-c3cn(C)nc3C)c2)C2=C(Nc3n[nH]cc31)C(F)C(C)(C)CC2=O (single isomer, unassigned)
Concentration: 1 µM
| target | assay | scale | remaining binding [%] |
| --- | --- | --- | --- |
| Interleukin-1 receptor-associated kinase 1 (IRAK1, Homo sapiens, UniProt P51617) | binding, competition with immobilised ligand | – | 85 |
| Serine/threonine-protein kinase Sgk2 (SGK2, Homo sapiens, UniProt Q9HBY8) | kinase binding, KINOMEscan | reference: DMSO control | 100 |
| Tyrosine-protein kinase JAK1, JH1 (JAK1, Homo sapiens, UniProt P23458) | binding, competition with immobilised ligand | – | 100 |
| Platelet-derived growth factor receptor beta (PDGFRB, Homo sapiens, UniProt P09619) | kinase binding, KINOMEscan | reference: DMSO control | 94 |
| Serine/threonine-protein kinase tousled-like 2 (TLK2, Homo sapiens, UniProt Q86UE8) | binding, competition with immobilised ligand | – | 100 |
| Vascular endothelial growth factor receptor 2 (KDR, Homo sapiens, UniProt P35968) | binding, competition with immobilised ligand | – | 100 |
| Dual specificity protein kinase CLK1 (CLK1, Homo sapiens, UniProt P49759) | binding, competition with immobilised ligand | – | 100 |
| Ephrin type-A receptor 5 (EPHA5, Homo sapiens, UniProt P54756) | kinase binding, KINOMEscan | reference: DMSO control | 98 |
| Serine/threonine-protein kinase Nek4 (NEK4, Homo sapiens, UniProt P51957) | kinase binding, KINOMEscan | reference: DMSO control | 95 |
| Uncharacterized serine/threonine-protein kinase SBK3 (SBK3, Homo sapiens, UniProt P0C264) | kinase binding, KINOMEscan | reference: DMSO control | 100 |
| G protein-coupled receptor kinase 3 (GRK3, Homo sapiens, UniProt P35626) | binding, competition with immobilised ligand | – | 51 |
| Serine/threonine-protein kinase 32B (STK32B, Homo sapiens, UniProt Q9NY57) | binding, competition with immobilised ligand | – | 82 |
| Serine/threonine-protein kinase PLK3 (PLK3, Homo sapiens, UniProt Q9H4B4) | binding, competition with immobilised ligand | – | 83 |
| Dual specificity tyrosine-phosphorylation-regulated kinase 1A (DYRK1A, Homo sapiens, UniProt Q13627) | kinase binding, KINOMEscan | reference: DMSO control | 69 |
| Ribosomal protein S6 kinase alpha-2, C-terminal kinase domain (RPS6KA2, Homo sapiens, UniProt Q15349) | kinase binding, KINOMEscan | reference: DMSO control | 99 |
| Receptor-interacting serine/threonine-protein kinase 4 (RIPK4, Homo sapiens, UniProt P57078) | binding, competition with immobilised ligand | – | 74 |
| Myosin-IIIb (MYO3B, Homo sapiens, UniProt Q8WXR4) | kinase binding, KINOMEscan | reference: DMSO control | 96 |
| Angiopoietin-1 receptor (TEK, Homo sapiens, UniProt Q02763) | binding, competition with immobilised ligand | – | 100 |
| cGMP-dependent protein kinase 1 (PRKG1, Homo sapiens, UniProt Q13976) | kinase binding, KINOMEscan | reference: DMSO control | 100 |
| Rho-associated protein kinase 1 (ROCK1, Homo sapiens, UniProt Q13464) | kinase binding, KINOMEscan | reference: DMSO control | 84 |

Series 3
Compound: NC/C(=C\F)COc1ccc(Cn2c(=S)[nH]c(=O)c3[nH]cnc32)cc1
Read-out: enzyme activity
MPO: Myeloperoxidase (MPO, Homo sapiens, UniProt P05164)
Sequence of UniProt P05164 (whole entry, looked up): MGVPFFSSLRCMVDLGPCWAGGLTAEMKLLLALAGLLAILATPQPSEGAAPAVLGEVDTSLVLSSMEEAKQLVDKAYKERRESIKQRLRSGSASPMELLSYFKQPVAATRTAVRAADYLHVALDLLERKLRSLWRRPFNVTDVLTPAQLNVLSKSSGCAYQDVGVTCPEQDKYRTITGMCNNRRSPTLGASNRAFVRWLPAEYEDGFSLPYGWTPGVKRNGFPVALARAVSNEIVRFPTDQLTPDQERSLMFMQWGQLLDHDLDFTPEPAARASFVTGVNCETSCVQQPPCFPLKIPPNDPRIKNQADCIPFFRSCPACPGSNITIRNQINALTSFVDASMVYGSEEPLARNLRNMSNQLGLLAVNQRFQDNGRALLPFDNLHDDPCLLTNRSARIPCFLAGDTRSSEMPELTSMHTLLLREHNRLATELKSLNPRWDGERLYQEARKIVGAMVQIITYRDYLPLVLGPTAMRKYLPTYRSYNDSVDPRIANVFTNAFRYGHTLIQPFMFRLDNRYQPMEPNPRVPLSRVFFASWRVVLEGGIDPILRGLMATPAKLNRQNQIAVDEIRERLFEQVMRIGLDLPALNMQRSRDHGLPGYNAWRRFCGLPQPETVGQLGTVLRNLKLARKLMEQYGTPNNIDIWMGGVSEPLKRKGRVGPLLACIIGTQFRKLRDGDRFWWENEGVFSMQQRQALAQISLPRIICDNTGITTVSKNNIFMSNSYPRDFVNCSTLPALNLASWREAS
AOC3: Amine oxidase [copper-containing] 3 (AOC3, Homo sapiens, UniProt Q16853)
Sequence of UniProt Q16853 (whole entry, looked up): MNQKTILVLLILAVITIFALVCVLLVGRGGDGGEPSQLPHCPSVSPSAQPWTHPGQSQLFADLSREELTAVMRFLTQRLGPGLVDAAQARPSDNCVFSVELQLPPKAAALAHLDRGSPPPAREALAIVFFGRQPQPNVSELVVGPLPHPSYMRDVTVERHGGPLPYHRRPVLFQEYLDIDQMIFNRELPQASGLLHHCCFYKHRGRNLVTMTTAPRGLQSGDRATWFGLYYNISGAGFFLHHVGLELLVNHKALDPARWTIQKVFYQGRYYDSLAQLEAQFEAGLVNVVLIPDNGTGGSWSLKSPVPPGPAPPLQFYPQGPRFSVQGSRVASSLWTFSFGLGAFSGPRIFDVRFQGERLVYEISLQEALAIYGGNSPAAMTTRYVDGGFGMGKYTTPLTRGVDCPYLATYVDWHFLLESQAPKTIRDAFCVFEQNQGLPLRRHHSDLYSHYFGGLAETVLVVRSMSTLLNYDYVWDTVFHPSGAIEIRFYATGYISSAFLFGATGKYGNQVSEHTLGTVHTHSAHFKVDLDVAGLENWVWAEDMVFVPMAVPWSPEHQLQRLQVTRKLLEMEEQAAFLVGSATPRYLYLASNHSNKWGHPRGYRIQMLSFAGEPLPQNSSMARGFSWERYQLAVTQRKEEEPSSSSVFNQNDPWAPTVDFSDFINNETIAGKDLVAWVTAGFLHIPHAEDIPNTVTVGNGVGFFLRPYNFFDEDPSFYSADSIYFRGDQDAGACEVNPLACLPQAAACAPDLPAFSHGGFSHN
| target | assay | conditions | inhibition |
| --- | --- | --- | --- |
| MPO | – | 300 µM | 80.4% and 77.5% |
| MPO | – | 33.33 µM | 41.6% and 54.6% |
| MPO | inhibitor, fluorescence | 0.3704 µM | -2.86% |
| MPO | inhibitor, fluorescence | 41.2 nM | -5.82% |
| AOC3 | inhibitor, fluorescence | 0.1235 µM | 100% |
| AOC3 | inhibitor, fluorescence | 10 µM | 99.9% |

Series 4
Structure (SMILES): CN(C1COC1)C(C)(C)/C=C(\C#N)C(=O)N1CCC[C@H]1Cn1nc(-c2ccc(Oc3ccccc3)cc2F)c2c(N)ncnc21
Read-out: kinase activity
PIK3CB: Phosphatidylinositol 4,5-bisphosphate 3-kinase catalytic subunit beta isoform (PIK3CB, Homo sapiens, UniProt P42338)
Sequence of UniProt P42338 (whole entry, looked up): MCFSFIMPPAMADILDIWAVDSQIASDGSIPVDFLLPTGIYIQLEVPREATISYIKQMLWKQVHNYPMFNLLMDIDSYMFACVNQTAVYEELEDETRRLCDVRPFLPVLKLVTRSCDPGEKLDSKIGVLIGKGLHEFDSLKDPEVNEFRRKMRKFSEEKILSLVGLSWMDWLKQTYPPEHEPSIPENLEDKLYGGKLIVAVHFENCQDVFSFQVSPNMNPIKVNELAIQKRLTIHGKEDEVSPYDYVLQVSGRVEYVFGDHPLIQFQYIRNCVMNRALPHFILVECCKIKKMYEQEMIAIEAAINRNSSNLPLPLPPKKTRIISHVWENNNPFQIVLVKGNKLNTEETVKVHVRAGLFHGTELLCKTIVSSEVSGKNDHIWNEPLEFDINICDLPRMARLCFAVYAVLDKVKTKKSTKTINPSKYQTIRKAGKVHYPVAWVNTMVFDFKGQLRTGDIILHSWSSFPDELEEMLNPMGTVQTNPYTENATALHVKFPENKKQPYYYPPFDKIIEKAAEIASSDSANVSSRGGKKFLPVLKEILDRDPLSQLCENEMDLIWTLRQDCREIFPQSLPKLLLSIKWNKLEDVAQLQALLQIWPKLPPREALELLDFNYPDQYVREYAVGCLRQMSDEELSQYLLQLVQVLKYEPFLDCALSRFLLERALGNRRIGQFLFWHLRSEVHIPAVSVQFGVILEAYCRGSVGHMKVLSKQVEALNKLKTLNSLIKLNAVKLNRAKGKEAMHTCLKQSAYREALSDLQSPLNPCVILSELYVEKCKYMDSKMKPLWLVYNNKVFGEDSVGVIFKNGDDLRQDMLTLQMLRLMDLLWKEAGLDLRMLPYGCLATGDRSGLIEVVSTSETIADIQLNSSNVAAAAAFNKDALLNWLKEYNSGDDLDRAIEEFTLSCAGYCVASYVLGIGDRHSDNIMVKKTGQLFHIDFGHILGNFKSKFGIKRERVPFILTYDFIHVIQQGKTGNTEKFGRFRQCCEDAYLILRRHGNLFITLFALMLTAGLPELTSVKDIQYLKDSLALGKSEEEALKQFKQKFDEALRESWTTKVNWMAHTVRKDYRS
| target | conditions | inhibition [%] |
| --- | --- | --- |
| Protein-tyrosine kinase 2-beta (PTK2B, Homo sapiens, UniProt Q14289) | 0.1 µM | 1 |
| Protein kinase C beta type, isoform beta-II (PRKCB, Homo sapiens, UniProt P05771) | 1 µM | 3 |
| Cyclin-dependent kinase 9, with cyclin T1 (CDK9, Homo sapiens, UniProt P50750) | 0.1 µM | 2 |
| Mitogen-activated protein kinase kinase kinase kinase 5 (MAP4K5, Homo sapiens, UniProt Q9Y4K4) | 0.1 µM | 1 |
| High affinity nerve growth factor receptor (NTRK1, Homo sapiens, UniProt P04629) | 0.1 µM | 7 |
| Ephrin type-A receptor 2 (EPHA2, Homo sapiens, UniProt P29317) | 1 µM | 1 |
| Serine/threonine-protein kinase Chk2 (CHEK2, Homo sapiens, UniProt O96017) | 1 µM | 5 |
| MAP/microtubule affinity-regulating kinase 4 (MARK4, Homo sapiens, UniProt Q96L34) | 0.1 µM | 3 |
| PIK3CB | 0.1 µM | 4 |
| Serine/threonine-protein kinase PAK 6 (PAK6, Homo sapiens, UniProt Q9NQU5) | 1 µM | -4 |
| Serine/threonine-protein kinase PAK 4 (PAK4, Homo sapiens, UniProt O96013) | 0.1 µM | -2 |
| PIK3CB | 1 µM | -8 |
| RAC-alpha serine/threonine-protein kinase (AKT1, Homo sapiens, UniProt P31749) | 0.1 µM | 1 |
| Ephrin type-B receptor 2 (EPHB2, Homo sapiens, UniProt P29323) | 1 µM | 1 |
| Mitogen-activated protein kinase kinase kinase 7, with TAB1 (MAP3K7, Homo sapiens, UniProt O43318) | 1 µM | 1 |
| Dual specificity protein kinase CLK4 (CLK4, Homo sapiens, UniProt Q9HAZ1) | 0.1 µM | 6 |
| Phosphorylase b kinase gamma catalytic chain, skeletal muscle/heart isoform (PHKG1, Homo sapiens, UniProt Q16816) | 1 µM | 1 |
| MAP/microtubule affinity-regulating kinase 3 (MARK3, Homo sapiens, UniProt P27448) | 1 µM | 0 |
| SRSF protein kinase 3 (SRPK3, Homo sapiens, UniProt Q9UPE1) | 0.1 µM | -1 |
| Casein kinase I isoform gamma-1 (CSNK1G1, Homo sapiens, UniProt Q9HCP0) | 0.1 µM | 0 |
| Ephrin type-A receptor 5 (EPHA5, Homo sapiens, UniProt P54756) | 0.1 µM | 3 |
